Measured values collected from several papers.
Every numbered part comes from another study and shows a few of its results, in no order. Positions count from the first letter of the parent shown.

Set 1
Target: Histone acetyltransferase KAT6A, winged helix 2, GST fusion (KAT6A, Homo sapiens, UniProt Q92794, residues 85-181)
Technique: protein binding microarray
Form: double-stranded DNA, one strand shown
Sample: in vitro
Concentration: not given
Setting: 8-mer, flanks averaged, mean of 2 arrays, mostly near background
Reference: not given
Direction: higher = stronger binding
Quantity: E-score
Target sequence (chain): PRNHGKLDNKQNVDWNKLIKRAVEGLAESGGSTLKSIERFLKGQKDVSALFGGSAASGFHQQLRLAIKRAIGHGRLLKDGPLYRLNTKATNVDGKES
GAGGTATC: 0.0365
CTGCGTCA: -0.0612
CTACGCCC: 0.0561
CAGGTGTC: -0.0918
AGCGTCCA: -0.00938
TACGCTCA: -0.0204
AGTCAGAC: -0.139
ACATGGAA: -0.0402
CCATCTGC: 0.0548
CAGCACGC: 0.167
GTGCGGAA: 0.086
CCACCTTC: -0.0823
GTTTCAAA: 0.0583
CAGTAATA: 0.0291
CGTCTTGC: 0.0602
AGAACTCC: -0.0979
GGTGCAAA: 0.0856
CATACCCG: -0.0514

Set 2
Target: CCNB3, cyclin fold, Cln2 fusion (human)
Technique: yeast growth competition, sequencing
Sample: yeast
Setting: weak parent motif
Reference: not given
Direction: higher = stronger binding
Quantity: normalised enrichment score
Starting sequence: PKN2 docking peptide (human); DSTVTKLDFDLEP
DSTVTKLDFALEP [D10A]: -0.157
DATVTKLDFDLEP [S2A]: -0.238
DSTVTKLDFDLEA [P13A]: 0.0131
DSTVTKLAFDLEP [D8A]: -0.125
DSTVTKLDADLEP [F9A]: -0.201
DSTVTKLDFDAEP [L11A]: 0.0345
DSTVAKLDFDLEP [T5A]: -0.0435

Set 3
Target: Interferon regulatory factor 5, full length, phosphomimetic (IRF5, Homo sapiens, UniProt Q13568-2, residues 1-514, K96S/S451D/S453D/S456D/S462D)
Technique: protein-binding microarray
Form: double-stranded DNA, one strand shown
Sample: in vitro
Concentration: 250 nM
Setting: 60-bp whole probe
Added: salmon DNA 0.4 mg/ml
Reference: random background probes
Direction: higher = stronger binding
Quantity: log fluorescence
Shared flanks, not repeated: GCCTAGCAC … GTCTTGATTCGCTTGACGCTGCTG
TTAGGTTTCCGTTCCCTTTAGTGCTAG: 1.72 z-score
GAGGATTTCAGTTTCGAGACGTGCTAG: 6.58 z-score
TACGGTATCCTTTTCCTGACGTGCTAG: 0.46 z-score
TTAGGTTTCCATTCCCTTTAGTGCTAG: 1.42 z-score
TCAACGAATTAGAAAGAGCAGTGCTAG: 0.541 z-score
GACGATTTCGGGCCTGGAGACGTGCTA: 1.32 z-score
GACGATATCGGTATCGGGACGTGCTAG: 4.8 z-score
TCAGACATCTTCATCAAACTGTGCTAG: 0.286 z-score
ATATCTAAAAAGTCTCTGGGAGTGCTA: 0.639 z-score
GACGGACTGGTCTATCGGGACGTGCTA: 0.0211 z-score
TCAGTTTTGTGTGTGTGACTGTGCTAG: 0.563 z-score
GACGGACTGGGTATCGAGACGTGCTAG: 0.121 z-score
TTAGATATCAGACTGGTTTAGTGCTAG: 0.365 z-score
TTAGATTTCATACTGGATTAGTGCTAG: 0.869 z-score
TCATGTATGGATGTGTCACTGTGCTAG: -0.0313 z-score
TTCGGACTGGGTCTCGGTTAGTGCTAG: 0.124 z-score

Set 4
Target: Sal-like protein 4, full length isoform A (SALL4, Homo sapiens, UniProt Q9UJQ4, residues 1-1053)
Sequence of UniProt Q9UJQ4 (whole entry, looked up): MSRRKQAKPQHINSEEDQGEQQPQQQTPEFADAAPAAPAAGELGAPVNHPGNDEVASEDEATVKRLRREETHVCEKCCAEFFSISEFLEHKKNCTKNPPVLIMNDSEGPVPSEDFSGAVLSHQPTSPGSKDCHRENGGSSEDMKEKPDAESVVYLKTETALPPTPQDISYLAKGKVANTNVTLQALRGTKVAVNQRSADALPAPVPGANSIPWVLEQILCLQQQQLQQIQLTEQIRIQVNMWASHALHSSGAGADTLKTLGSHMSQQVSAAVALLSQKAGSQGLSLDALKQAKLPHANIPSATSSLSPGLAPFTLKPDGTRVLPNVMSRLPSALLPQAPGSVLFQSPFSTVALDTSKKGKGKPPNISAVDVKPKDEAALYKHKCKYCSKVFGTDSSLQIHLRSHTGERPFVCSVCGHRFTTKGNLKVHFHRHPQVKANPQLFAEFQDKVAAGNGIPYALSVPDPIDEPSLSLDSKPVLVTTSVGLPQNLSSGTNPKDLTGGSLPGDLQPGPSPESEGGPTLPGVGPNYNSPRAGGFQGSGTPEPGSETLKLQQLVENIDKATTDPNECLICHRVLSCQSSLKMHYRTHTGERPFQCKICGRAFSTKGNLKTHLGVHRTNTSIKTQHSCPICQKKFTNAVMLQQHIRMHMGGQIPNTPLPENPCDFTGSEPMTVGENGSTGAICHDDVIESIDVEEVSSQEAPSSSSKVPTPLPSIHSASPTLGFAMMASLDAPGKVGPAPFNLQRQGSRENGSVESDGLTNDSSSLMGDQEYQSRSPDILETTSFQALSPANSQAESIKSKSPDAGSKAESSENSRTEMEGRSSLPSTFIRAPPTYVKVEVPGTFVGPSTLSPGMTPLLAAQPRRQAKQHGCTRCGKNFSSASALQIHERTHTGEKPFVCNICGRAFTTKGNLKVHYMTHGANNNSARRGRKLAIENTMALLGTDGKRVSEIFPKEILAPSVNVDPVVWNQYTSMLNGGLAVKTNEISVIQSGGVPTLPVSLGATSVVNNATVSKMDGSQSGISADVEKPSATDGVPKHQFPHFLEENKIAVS
Technique: universal PBM
Form: double-stranded DNA, one strand shown
Sample: in vitro
Concentration: 600 nM
Setting: 8-mer, flanks averaged, mean of replicates
Direction: higher = stronger binding
Quantity: E-score
CCACTAAC: 0.108
ACCCAGCG: -0.378
AGTGGAGC: -0.125
AACAGTGC: -0.0308
GGAGGACA: 0.0253
CGGTTACA: 0.052
CTCTTAAC: 0.00285
TCGTTAAA: 0.158
AAACTGCT: 0.0396
CGCAGAGA: -0.236
ACGAGGGC: -0.243
CGTCTAAA: -0.00836
GATCGAGC: -0.0822
CCTGGAAC: -0.127
CTAAATCC: -0.0589
CATAGAGC: -0.082
GGCTCTAC: -0.159
CAAATCTG: 0.0581
CTAACAAA: 0.183
ACGTTCAG: -0.029
CCCCATAC: -0.131
GTAATCAA: 0.255
TAGCTGAA: 0.107
CTGAGACC: -0.102
CATCGCAC: -0.123

Set 5
Target: RING finger protein unkempt homolog, zinc fingers 1-6, SBP tag (UNK, Homo sapiens, UniProt Q9C0B0, residues 30-357)
Sequence of UniProt Q9C0B0 (30-357, looked up): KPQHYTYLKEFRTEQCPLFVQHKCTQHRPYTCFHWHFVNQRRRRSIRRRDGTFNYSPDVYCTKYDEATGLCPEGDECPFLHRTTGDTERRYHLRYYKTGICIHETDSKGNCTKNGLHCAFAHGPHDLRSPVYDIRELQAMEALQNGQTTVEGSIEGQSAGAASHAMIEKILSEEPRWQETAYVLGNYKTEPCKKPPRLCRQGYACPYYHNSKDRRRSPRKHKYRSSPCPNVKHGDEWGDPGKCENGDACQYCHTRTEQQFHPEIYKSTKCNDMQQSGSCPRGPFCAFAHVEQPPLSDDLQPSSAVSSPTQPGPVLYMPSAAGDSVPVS
Technique: RNA Bind-n-Seq
Form: RNA
Sample: in vitro
Concentration: 100 nM
Setting: RNA with constant flanks, vertebrate orthologous sites, ends assumed
Reference: input RNA pool
Direction: higher = stronger binding
Quantity: bound/input enrichment
Shared flanks, not repeated: GGGAGUUCUACAGUCCGACGAUC … CAACAGAGGAUUGAGCAUCA
CAAGACUUAUUGUGGCAUAUAGUCAACAUGGAAGUAGACCAGCUCUGCCGAUUUGAAAUUUAGAUUUUUUAAAAAUUAUGUACUGGGGACAGGUCUUUGUCGCUUUACAUUGCUUCCUAG: 3.2 ratio
UCCUCAACUUGUUCUAGCUUGUGAUCCUUCAAAGUUGGGUCAGGCAUUAGUGCUAGAUACUAGAAAUUUUCAUUUCCCUGUUGUUAUUGAUCAGCGGGACAGGCAUUAAUUAAAAACAGA: 0.875 ratio
UAUUAGUGUUGUACCAGCCUAUUAACCUCUUGUCUGUGCACAGCUUCAAAUGUUACCGUCUAGUUAGAUUUUUAUUUAAAAUAUGAAAAACUGCUUUUCCCAAGAUGUUUUUUAAAAACA: 1.16 ratio
CAGUUUGUAUGUACAUUAUUCAUAUUCCUCUCUGUUGUGUUUCGGGGGGAAAAGACAUUUUAGCCUUUUUUAAAAGUUACUGAUUUAAUUUCAUGUUAUUUGGUUGCAUGAAGUUGCCCU: 1.41 ratio
CAGUCAUGGAGAAAAAUAUAUUAAAAUAAUUUGAUGGCACUGAUGUUAAUUCUAGUCUAUUAGUUUUAUAAAAGUUAGGGCUCUUAUUUAGGAACAACAGGAAGUGACUGUUAAGGAGAA: 3.27 ratio
GCAAUGAAAAAACAGCCCUUCUCCCAGCCCCCUUUUCACUAGGAGAUACAAACGUUACCAUAGAAGAGCAAUUAAACUCAAUAAAUUUAUCUUUUCAGGAUGAUCCAGACUCCAGUACCA: 1.92 ratio
GGUGGUGGUUGUGCAUAUAAUUUCAUUUAUAAAAUAUAAACCUACAUUUUGUUUUGAAGCUAGGUAUUAAACUUGGAGUAGCUAUACACCCCUGAGAAAUGGGCACUGUGCCCUCACCCU: 0.827 ratio
UGUUAGUUAUUGAUGGACUCUAUUUUUUUAUUAUUACUUGGACCUUGGUCGUUUUUAUACUAGCAAAAUGUCUUGUUUUAAUUUGUGUUUUUUGGGGAGGGAGGGAGUGAACUUGCUGAU: 1.87 ratio

Mixed results
PhoQ, residues 284 288 289 292 302 303 SLSVQF — fold induction (PhoP, residues 12 14 15 18 19 TPLRH (Escherichia coli, UniProt P23836); Sort-seq, measured: YFP reporter; E. coli; PhoQ-PhoP variant library, added: 10 µM Mg2+; reference: high Mg2+ state, higher = stronger signaling): 7.51

Excerpt of the above (set 4):
AGTGGAGC: -0.125
AACAGTGC: -0.0308
GGAGGACA: 0.0253
CGGTTACA: 0.052
CTCTTAAC: 0.00285
TCGTTAAA: 0.158
